Results collected from several papers.
Parts stem from different laboratories: compare values within a part only.

Study 1
Target: Sal-like protein 4, full length isoform B (SALL4, Homo sapiens, UniProt Q9UJQ4-2, residues 1-616)
Technique: universal PBM
Molecule type: double-stranded DNA, one strand shown
Sample: in vitro
Concentration: not given
Setting: 8-mer, flanks averaged, mean of replicates
Reading: higher = stronger binding
`CGGTACAA` gave an E-score of 0.12.
`AAAACAAC` gave an E-score of 0.0606.
The E-score of `ACTAAAAG` is reported as 0.118.
For `ATGAGTCC`, the E-score was -0.0196.
The E-score of `GTTACCCA` is reported as -0.173.
For `ACCCGTAT`, the E-score was -0.0847.
With `TAACACGA` the E-score was 0.156.
For `CCTAGCCG`, the E-score was -0.152.
`ATTACACC` gave an E-score of 0.0346.
`CAGTTAAA` gave an E-score of 0.118.
`CCCCACAC` gave an E-score of -0.0537.
The E-score of `AGAGTCGC` is reported as -0.218.
With `AGTGAGAA` the E-score was 0.0631.
`CACACGGC` gave an E-score of -0.233.
The E-score of `GACCGCAC` is reported as -0.251.
`CCATGCGC` has an E-score of -0.247.
With `CGTGCAAC` the E-score was -0.107.
For `GCCGTGAA`, the E-score was -0.036.
With `GCTGGGAC` the E-score was -0.306.
`ACTGCCTA` gave an E-score of 0.0365.
For `AGGCTTAT`, the E-score was 0.139.
`CCAAATCG` gave an E-score of 0.0594.
`CACTAGTG` gave an E-score of 0.195.
With `GCGACAAA` the E-score was 0.00533.
With `CAGCGATA` the E-score was 0.0195.

Study 2
Target: RNA binding protein fox-1 homolog 2, RRM domain, GST-SBP tag (RBFOX2, Homo sapiens, UniProt O43251-10, residues 100-194)
Technique: RNA Bind-n-Seq
Molecule type: RNA
Sample: in vitro
Concentration: 365 nM
Setting: natural RNA segment, single round, ends assumed
Relative to: no-protein control
Reading: higher = stronger binding
Target sequence (chain): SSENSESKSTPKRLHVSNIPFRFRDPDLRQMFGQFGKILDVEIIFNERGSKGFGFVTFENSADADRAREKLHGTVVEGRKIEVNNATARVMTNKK
`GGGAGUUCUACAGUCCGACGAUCUUUGGGACACACUGUCCACACUCCACCAAGAGCUACACAGAUUCCCACAUAAAGAUAGUGCCCUAAGUUGUAAUCAGAACACUUGAGCAAGGAGUUAAAUGGAGGAGUAAUGGAAUUCUCGGGUGCCAA`: “RBNS enrichment (R)” 0.346.
For `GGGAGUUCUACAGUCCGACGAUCUGGCAAGAUGUUUUUUCGGCCCUUCAUCACUGAUUGCAUUUUCCAUACAGAAGAGACAUCAGGGGUGUGGGUAAAAUUGUGUGUGUGCCUCCUUGACGUGGACAAUCACUUGGAAUUCUCGGGUGCCAA`, “RBNS enrichment (R)” read 0.198.
For `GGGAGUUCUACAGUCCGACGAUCUGAGAUCAAGCCUUUACUCCCUUUGAGAGUUUCCAACAUCAGUUGAUUGAGCUUCAGGCUUUACAACGUUUAUCCCUGUAGAGAUCAUCUUUACAGUUCCUCGGGAAAAUUGGAAUUCUCGGGUGCCAA`, “RBNS enrichment (R)” read 0.27.
`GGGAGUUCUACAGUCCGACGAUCUGGGUCAACGAGGAGGACCACCUGCGGGUCAUCUCCAUGCAGAAGGGGGGCAACAUGAAGGAGGUGUUCACCCGCUUCUGCACCGGCCUCACCCAGAUUGAAACUCUCUUUGGAAUUCUCGGGUGCCAA`: “RBNS enrichment (R)” 0.413.
`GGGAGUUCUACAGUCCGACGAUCUGUUUCUUCCUGUGACUGUAGAGACAGUUCUAGACCUUUGUGAUAGAACUAAAAUGCUCUCUGUACUCUAGUCUCCUGCCUCCUCAGCUCUGCAAGUAGUUUAGUAGGAAUGGAAUUCUCGGGUGCCAA` — result for “RBNS enrichment (R)”: 0.833.
`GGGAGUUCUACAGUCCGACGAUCUUGUAUGUGGAAAUGGAUUAACAUACCCCUUUAUGCCUAAAAAAAAAAUAAAAAAAUAUGUCUUCACAUAUCCCUCAUAGCUGUCUGCCUCUUGUCUGCAAUAGGAUGUUUGGAAUUCUCGGGUGCCAA` — result for “RBNS enrichment (R)”: 0.776.
`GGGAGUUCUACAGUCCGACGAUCUUAUUUUUAGCCAUGCACUGUUGUGAGGAAAAAUUACCUGUCUUGACUGCCAUGUGUUCAUCAUCUUAAGUAUUGUAAGCUGCUAUGUAUGGAUUUAAACCGUAAUCAUAUGGAAUUCUCGGGUGCCAA` — result for “RBNS enrichment (R)”: 0.633.
`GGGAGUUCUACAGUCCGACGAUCUAAGAGCGAAAACAAGGUCAUAUGUAAUAUUUUGUUUGUAAGUAUCCUUUGUAUCAUAGCAAAGGAAAUGUUUAAAAAAAUCAACUGUAAUAAAGUAAUUUUAGUACACAUGGAAUUCUCGGGUGCCAA` — result for “RBNS enrichment (R)”: 0.539.
Under “RBNS enrichment (R)”, `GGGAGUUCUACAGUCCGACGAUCUGAUGCCCUCUUCUGGCAUGCAGGCAGAAUACUAUAUAUAGUAAGUAAAUCGUAAAGAGAAAGGAAUUUAAGGGGUUGGAGAGAUGACUCAGUGGCUAAGAGAAUUGGCUUGGAAUUCUCGGGUGCCAA` is recorded as 3.22.
Under “RBNS enrichment (R)”, `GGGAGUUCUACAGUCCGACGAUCUUAGCUAGAUUGUACAUACUUGCAGAUUUAACAAAAUUUUAGGGAAAUUGAAAAAGACAUGUAGAAUUUGUUGUCUUCUGCUAAGCACGAAAAGUUAAGAUAUCUGCUUAUGGAAUUCUCGGGUGCCAA` is recorded as 1.66.
For `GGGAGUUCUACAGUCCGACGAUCUGGCUCGAGGUAAACCCUUUUCAAGGAAAAACAACUCUAGGAUUUCUUUUUUCUGUGUACGUAGACCAGUCCCAUCAGUGUAUAAUCUCUCUCUCACACGCCUCUCUCCAUGGAAUUCUCGGGUGCCAA`, “RBNS enrichment (R)” read 0.776.
For `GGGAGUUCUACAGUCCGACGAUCGGGAACCUUGGGUUAUCAUGUCACGAUGCCUGUGACCAUGAUUUCACGAAGUAGGUUUCCUCUGGCUCCCUACAGAGCAAUAUUCCAAAGGAACAUUUUAACUGUAAAGGUGGAAUUCUCGGGUGCCAA`, “RBNS enrichment (R)” read 0.248.

Study 3
Target: RING finger protein unkempt homolog, zinc fingers 1-6, GST-SBP tag (UNK, Homo sapiens, UniProt Q9C0B0, residues 30-357)
Technique: RNA Bind-n-Seq
Molecule type: RNA
Sample: in vitro
Concentration: not given
Setting: RNA with constant flanks, human and mouse sites, ends assumed
Relative to: input RNA pool
Reading: higher = stronger binding
Construct (chain): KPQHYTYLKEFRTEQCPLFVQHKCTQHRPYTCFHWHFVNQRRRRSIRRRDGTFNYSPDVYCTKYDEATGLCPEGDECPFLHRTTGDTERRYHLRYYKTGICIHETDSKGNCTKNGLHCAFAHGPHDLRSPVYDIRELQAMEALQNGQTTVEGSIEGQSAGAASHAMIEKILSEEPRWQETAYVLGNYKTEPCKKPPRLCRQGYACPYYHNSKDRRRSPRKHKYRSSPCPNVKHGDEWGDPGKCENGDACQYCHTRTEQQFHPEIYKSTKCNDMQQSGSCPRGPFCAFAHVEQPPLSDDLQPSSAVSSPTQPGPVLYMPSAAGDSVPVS
The bound/input enrichment of `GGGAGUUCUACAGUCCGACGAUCAGGCCUGCUGGGAACAGGACUUCUAACAGCAAGUAUGUCUGGAAGGCUGUGGUGCAAGGCCAUUUUUGCUGGCUACAAGCGAGGUCUCCGGAACCAAAGAGAGCACACGGCUCUUCUUAACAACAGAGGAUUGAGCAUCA` is reported as 0.0813 ratio.
`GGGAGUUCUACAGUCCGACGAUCGAUGACUGUCUUUUGAAGGUUUGGUAUAAUGUAGAAAACUGGCGGACAGCUGUUACUUCUCCAGAUGGAAGUUCAGAAAAACAAUCCCAAGGAGAAAUUGACUUUUCUUUUGUGUAUCUGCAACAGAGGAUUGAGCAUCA` gave a bound/input enrichment of 0.18 ratio.
With `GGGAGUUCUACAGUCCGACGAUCAUGGGGUGGGAGGGGGAAAAAGGCCGACAACACUCGACCGCUUGUUUUGUGCCAAAUGCUUUUAGAUAAGGACAUAAUGUUUUUGACUGAUGUAAAUACUAACUCUAGAAUAGGCAGGAUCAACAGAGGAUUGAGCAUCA` the bound/input enrichment was 1.06 ratio.
`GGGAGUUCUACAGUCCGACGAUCUCUAAAAUUGUUCGUGUUAGAUCAGAUUUGCUUGAUGAGUUAAUUAAAUCAGGGCAGUUAUUAGGAGUGAAAUUUAUAGCAGAGCUUGGUGUCCCAUUGUCACAGGUUAAAAGCAUCUCACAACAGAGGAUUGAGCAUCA` gave a bound/input enrichment of 1 ratio.
For `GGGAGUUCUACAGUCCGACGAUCGUGGUGCGUAAUGAAGAACAGAAGGCGGAACAAGAAGAGGGUAAGGUGGCUCAGCGAGAGGAAGAGUUGGAGGAGACAGGUAAUCAGCACAAUGAUGUAGAAAUAGAGGAAGCAGGAGAGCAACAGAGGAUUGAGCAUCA`, the bound/input enrichment was 0.895 ratio.
For `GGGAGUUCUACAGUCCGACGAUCGAGAGUGAUGAAGAGGGGCAUUCCCCGGUCCUGGGCGGCCUUGGGCCGCCUUUUGCCUUCAAUUUGAACAGUGACACAGAUGUGGAAGAAGGUCAGCAACCAGCCACAGAGGAGGCCUCCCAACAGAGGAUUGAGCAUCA`, the bound/input enrichment was 0.348 ratio.
With `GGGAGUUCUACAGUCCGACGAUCGCCUCACCGUUAGACCAGAACGGAAGCUUCAAUGUUGUUAUUAAAGAGGAACCUCUAGAUGAUUAUGACUACGAACUUGGUGAGUGCCCAGAAGGGGUCACUGUGAAACAGGAAGAGACACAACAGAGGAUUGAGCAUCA` the bound/input enrichment was 0.386 ratio.
The bound/input enrichment of `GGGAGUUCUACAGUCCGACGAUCUUCUUCUUCUUUGAUUCAGUUCAAGUCGUUUUCACAAUAUGUACAGCAGUUCUUGCAACAAUAGCUUUUGCUUUUCUUCUUCUCCCGAUGUGCCAGUAUUUAACAAGGCCCUGCUCACCUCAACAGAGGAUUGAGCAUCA` is reported as 2.09 ratio.
For `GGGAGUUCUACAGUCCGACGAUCCUCUUCUUAAAUUCUACUGCAGGAACAAGUGGGGGUGCUUACGAUCACAGCUAUGUAGAACUUUUUUUGAAUUCUACAGCAGGGGCAAGUGGUGGCGCUUAUGGUAGCCAAAUGAUGGGACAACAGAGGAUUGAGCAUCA`, the bound/input enrichment was 0.608 ratio.
The bound/input enrichment of `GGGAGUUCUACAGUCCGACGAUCAAAUACUUAGCACAGUUACUAAACAGUGUACGAUUACCAUUGUUGAGUGUUAAGUUUCUCACUAGACUAUAUGAAGCAAAUCAUCUUAUUCGUGAUGAUCGCACUUGUAAACAUCUUUUGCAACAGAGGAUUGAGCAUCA` is reported as 0.302 ratio.
With `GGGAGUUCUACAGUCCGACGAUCGUCCAGCCAGGGAGUGUAGCAGACAGGGAUCAAAGAUUAAAGGAAAAUGAUCAAAUAUUGGCCAUUAAUCACACGCCAUUGGAUCAGAACAUUUCCCAUCAGCAAGCAAUUGCAUUAUUACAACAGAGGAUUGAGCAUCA` the bound/input enrichment was 0.461 ratio.

Study 4
Target: Interferon regulatory factor 7, full length, phosphomimetic (IRF7, Homo sapiens, UniProt Q92985, residues 1-503, S471D/S472D/S475D/S476D/S477D/S483D/S484D/S487D)
Sequence of UniProt Q92985 (whole entry, unmodified, looked up): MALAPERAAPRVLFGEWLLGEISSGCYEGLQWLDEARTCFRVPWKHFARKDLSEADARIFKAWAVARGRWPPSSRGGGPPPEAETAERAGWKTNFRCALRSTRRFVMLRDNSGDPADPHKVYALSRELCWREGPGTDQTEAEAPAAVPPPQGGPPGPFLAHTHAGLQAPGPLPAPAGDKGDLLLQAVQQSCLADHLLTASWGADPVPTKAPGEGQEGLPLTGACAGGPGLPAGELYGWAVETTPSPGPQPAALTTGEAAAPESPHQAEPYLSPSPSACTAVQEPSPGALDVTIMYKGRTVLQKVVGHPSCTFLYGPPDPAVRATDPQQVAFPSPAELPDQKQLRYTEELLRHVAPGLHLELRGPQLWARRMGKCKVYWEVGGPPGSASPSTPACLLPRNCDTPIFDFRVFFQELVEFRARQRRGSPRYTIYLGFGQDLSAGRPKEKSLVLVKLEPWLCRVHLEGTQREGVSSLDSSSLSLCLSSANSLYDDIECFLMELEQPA
Technique: protein-binding microarray
Molecule type: double-stranded DNA, one strand shown
Sample: in vitro
Concentration: 2200 nM top
Setting: 60-bp whole probe
Added: salmon DNA 0.4 mg/ml
Relative to: random background probes
Reading: higher = stronger binding
Constant ends, left off below: GCCTAGCAC … GTCTTGATTCGCTTGACGCTGCTG
Under “fitted relative affinity”, `GACGGACTGGACTTTCGGGAGGTGCTA` is recorded as 1.19 z-score.
Under “fitted relative affinity”, `GACGGACTGGGGACTGGGCACGTGCTA` is recorded as -1.01 z-score.
For `GCCTCTAGGTTTTCTGGAGACGTGCTA`, “fitted relative affinity” read 0.268 z-score.
Under “fitted relative affinity”, `GACGGTCTCCTTATCCCGACGTGCTAG` is recorded as 1.21 z-score.
Under “fitted relative affinity”, `TTACGTCTCGGACTGGGTTAGTGCTAG` is recorded as 1.08 z-score.
`GACTGTATCGACTATCGGGACGTGCTA`: “fitted relative affinity” 0.359 z-score.
For `GACGGTATCGGGTTTCTGGACGTGCTA`, “fitted relative affinity” read 0.744 z-score.
`GACGTTTTCGACTTTCGGGACGTGCTA`: “fitted relative affinity” 8.41 z-score.
Under “fitted relative affinity”, `TATAGCTGATACATATAGCCGTGCTAG` is recorded as -0.266 z-score.
For `TCATACTTCTCTTTTGGACTGTGCTAG`, “fitted relative affinity” read 1.82 z-score.
Under “fitted relative affinity”, `TCATGACTCCCTCTCTGACTGTGCTAG` is recorded as 0.958 z-score.
Under “fitted relative affinity”, `CTAGCTTCCATTTTCTGAACGTGCTAG` is recorded as 3.34 z-score.
Under “fitted relative affinity”, `TTAGGACTGAGTATCGGTTAGTGCTAG` is recorded as -0.106 z-score.
`TTAGTACTGGGTTTCGGTTAGTGCTAG` — result for “fitted relative affinity”: 4.64 z-score.
Under “fitted relative affinity”, `GCCGGTATCCTACTGCTGACGTGCTAG` is recorded as 0.687 z-score.
Under “fitted relative affinity”, `GAAGGTTTCGGTTTCGGGACGTGCTAG` is recorded as 15.2 z-score.
For `TTTACTTTCTGAATGCCCTTGTGCTAG`, “fitted relative affinity” read 6.01 z-score.
`TCATTAATGCTTCTGGGACTGTGCTAG` — result for “fitted relative affinity”: 0.54 z-score.
